Experimental data from different studies.
Lines come from different studies, so protocols differ. Several values in a cell are separate wells, animals, samples, runs or records. ± gives the spread as reported.
USP3 ZnF-UBD domain: Ubiquitin carboxyl-terminal hydrolase 3, ZnF-UBD domain (USP3, Homo sapiens, UniProt Q9Y6I4)
Chain of UniProt Q9Y6I4 (whole entry, looked up): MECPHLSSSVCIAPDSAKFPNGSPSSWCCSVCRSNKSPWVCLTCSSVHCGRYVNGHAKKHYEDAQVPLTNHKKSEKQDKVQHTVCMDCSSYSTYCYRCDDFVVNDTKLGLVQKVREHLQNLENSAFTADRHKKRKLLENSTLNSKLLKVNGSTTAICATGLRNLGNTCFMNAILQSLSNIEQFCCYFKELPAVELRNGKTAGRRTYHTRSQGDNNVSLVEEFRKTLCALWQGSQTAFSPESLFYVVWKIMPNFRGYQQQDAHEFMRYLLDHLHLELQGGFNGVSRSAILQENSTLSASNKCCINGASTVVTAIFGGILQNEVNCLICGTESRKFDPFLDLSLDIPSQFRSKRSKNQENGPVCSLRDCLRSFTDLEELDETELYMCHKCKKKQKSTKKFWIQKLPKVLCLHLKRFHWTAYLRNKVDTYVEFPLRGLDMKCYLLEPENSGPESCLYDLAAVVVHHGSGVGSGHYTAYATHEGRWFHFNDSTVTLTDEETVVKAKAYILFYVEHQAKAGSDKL
Chain of UniProt Q9UBZ9 (whole entry, looked up): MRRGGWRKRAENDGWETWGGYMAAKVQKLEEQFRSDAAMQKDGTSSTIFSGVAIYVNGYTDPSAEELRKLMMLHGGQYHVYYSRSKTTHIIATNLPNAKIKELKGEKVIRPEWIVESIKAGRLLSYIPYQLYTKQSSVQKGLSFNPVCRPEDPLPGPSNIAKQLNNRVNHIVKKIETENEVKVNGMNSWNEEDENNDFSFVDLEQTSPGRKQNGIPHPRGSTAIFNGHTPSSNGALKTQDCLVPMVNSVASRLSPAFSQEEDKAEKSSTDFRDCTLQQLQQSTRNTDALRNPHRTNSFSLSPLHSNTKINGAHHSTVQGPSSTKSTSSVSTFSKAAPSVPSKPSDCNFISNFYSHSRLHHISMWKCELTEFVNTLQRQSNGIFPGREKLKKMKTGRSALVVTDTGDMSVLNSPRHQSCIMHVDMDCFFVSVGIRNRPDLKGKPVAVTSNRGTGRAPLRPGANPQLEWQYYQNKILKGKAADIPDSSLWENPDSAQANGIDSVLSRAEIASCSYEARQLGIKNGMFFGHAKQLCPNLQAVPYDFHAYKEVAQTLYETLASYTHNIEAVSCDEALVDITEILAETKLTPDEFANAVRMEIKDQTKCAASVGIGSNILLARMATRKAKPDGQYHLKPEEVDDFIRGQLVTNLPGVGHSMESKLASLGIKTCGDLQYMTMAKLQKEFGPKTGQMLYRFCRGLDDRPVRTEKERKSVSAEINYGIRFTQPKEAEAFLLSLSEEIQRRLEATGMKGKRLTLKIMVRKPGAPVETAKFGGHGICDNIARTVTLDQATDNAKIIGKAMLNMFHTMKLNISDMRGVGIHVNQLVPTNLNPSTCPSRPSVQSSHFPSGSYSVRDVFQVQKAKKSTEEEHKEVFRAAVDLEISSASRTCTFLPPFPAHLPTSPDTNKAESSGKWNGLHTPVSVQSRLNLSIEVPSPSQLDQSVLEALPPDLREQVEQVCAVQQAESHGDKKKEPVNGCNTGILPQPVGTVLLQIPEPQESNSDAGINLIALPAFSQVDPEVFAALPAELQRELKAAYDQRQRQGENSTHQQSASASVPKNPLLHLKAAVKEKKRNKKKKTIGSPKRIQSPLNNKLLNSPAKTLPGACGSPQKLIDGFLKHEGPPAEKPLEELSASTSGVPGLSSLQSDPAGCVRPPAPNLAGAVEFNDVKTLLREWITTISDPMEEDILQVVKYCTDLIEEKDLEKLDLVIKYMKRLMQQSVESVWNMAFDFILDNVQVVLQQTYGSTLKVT
Chain of UniProt Q6PL18 (whole entry, looked up): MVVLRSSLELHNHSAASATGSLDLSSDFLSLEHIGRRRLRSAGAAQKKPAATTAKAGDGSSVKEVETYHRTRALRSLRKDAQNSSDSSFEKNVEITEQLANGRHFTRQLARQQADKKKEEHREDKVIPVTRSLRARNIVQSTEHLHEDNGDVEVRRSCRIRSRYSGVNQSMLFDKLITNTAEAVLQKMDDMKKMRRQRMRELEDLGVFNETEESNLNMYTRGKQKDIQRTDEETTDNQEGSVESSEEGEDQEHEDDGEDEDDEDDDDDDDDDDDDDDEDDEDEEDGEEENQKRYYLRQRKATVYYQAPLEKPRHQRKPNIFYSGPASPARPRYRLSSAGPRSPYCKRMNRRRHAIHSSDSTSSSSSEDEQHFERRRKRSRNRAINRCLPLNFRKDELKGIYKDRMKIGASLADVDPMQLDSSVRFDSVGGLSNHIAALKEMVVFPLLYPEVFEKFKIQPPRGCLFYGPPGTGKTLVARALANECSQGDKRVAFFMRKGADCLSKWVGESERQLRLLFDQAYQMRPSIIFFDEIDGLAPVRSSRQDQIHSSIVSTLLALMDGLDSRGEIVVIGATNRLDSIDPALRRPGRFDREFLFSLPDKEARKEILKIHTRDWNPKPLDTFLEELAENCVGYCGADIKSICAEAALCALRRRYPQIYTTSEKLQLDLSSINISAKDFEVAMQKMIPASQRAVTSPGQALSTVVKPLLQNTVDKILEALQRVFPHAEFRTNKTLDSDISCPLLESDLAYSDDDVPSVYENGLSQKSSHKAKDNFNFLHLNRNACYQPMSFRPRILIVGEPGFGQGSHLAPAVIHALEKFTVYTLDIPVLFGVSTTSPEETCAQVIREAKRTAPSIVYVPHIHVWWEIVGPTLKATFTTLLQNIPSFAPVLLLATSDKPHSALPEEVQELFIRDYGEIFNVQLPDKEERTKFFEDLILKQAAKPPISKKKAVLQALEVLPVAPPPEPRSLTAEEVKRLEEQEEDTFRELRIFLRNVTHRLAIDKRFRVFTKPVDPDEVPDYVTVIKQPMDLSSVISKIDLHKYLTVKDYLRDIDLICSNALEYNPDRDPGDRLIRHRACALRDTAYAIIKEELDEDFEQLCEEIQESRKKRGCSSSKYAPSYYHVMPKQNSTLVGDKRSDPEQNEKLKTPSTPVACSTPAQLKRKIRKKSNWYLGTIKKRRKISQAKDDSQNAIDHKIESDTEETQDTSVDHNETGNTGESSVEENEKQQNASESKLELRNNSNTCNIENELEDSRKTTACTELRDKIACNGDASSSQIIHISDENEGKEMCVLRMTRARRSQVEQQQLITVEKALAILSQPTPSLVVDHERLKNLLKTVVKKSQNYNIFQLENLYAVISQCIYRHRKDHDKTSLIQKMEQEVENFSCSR
Chain of UniProt Q8N884 (whole entry, looked up): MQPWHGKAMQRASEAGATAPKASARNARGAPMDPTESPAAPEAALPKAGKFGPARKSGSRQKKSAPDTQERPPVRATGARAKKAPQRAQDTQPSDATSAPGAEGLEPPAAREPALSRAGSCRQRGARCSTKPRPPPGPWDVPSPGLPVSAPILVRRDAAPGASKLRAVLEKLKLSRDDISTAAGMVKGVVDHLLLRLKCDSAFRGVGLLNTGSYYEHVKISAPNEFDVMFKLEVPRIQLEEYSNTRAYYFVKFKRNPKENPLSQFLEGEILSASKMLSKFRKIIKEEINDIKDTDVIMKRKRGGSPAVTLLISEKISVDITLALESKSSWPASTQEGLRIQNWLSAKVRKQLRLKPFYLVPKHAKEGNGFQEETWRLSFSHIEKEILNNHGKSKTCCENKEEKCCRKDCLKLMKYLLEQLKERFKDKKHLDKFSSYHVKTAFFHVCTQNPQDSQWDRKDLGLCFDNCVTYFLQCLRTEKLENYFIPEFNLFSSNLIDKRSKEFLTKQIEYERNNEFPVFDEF
Chain of UniProt P21169 (whole entry, looked up): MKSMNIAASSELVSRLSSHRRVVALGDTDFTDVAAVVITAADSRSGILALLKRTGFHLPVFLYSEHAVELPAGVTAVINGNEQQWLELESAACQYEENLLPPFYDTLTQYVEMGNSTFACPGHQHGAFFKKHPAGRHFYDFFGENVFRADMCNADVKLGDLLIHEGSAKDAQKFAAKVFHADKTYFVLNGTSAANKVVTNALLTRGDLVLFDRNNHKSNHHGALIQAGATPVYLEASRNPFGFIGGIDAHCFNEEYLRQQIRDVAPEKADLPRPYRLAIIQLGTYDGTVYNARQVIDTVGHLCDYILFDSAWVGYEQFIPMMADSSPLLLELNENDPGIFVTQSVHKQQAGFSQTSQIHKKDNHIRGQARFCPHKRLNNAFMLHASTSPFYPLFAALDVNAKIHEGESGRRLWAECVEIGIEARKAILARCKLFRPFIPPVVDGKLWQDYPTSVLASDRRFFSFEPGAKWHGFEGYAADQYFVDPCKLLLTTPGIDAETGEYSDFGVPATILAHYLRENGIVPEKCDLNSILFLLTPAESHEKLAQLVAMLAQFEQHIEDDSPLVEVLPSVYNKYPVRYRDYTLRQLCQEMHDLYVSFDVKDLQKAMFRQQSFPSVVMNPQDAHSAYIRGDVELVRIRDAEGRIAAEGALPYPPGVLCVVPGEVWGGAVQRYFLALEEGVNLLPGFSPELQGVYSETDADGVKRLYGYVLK
Chain of UniProt P0A9M2 (whole entry, looked up): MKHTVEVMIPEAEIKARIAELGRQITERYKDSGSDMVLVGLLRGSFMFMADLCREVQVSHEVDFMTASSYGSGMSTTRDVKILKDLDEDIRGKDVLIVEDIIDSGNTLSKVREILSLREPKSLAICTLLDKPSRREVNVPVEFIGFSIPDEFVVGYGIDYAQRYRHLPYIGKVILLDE
Chain of UniProt P23204 (whole entry, unmodified, looked up): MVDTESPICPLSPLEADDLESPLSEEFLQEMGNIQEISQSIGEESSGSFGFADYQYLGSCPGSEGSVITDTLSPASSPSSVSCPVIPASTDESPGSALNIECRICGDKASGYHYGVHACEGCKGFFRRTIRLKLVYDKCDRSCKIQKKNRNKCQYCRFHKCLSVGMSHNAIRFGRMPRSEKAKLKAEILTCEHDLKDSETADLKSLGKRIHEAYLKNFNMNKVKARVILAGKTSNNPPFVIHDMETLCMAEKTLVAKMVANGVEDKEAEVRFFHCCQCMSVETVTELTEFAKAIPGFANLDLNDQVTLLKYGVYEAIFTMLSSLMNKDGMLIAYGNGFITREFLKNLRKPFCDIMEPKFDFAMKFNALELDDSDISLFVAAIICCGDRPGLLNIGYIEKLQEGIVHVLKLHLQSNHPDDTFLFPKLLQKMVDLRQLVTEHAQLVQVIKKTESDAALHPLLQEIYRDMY

Compound	tested on	test	test system	setting	endpoint	result
O=C(O)CCN1C(=O)c2ccccc2S1(=O)=O	USP3 ZnF-UBD domain	–	–	–	Kd	> 1000 µM
CN(C)c1ccc(/C=C/c2nc3ccc(OCCOCCOCCCF)cc3s2)cc1	Amyloid-beta precursor protein, Aβ42 aggregates (APP, Homo sapiens, UniProt P05067)	binding, fluorescence saturation binding	preformed amyloid-beta aggregates in PBS	–	Kd	0.325 ± 0.039 µM
C#Cc1c(F)ccc2cc(O)cc(-c3ncc4c(N5CC6CCC(C5)N6)nc(OC[C@@]56CCCN5C[C@H](F)C6)nc4c3F)c12	GTPase HRas, GDP-bound (HRAS, Homo sapiens, UniProt P01112)	SPR	–	–	Kd	3.4 µM
NC[C@@H]1O[C@H](O[C@H]2[C@@H](O)[C@H](O[C@@H]3[C@@H](O)[C@H](N)C[C@H](N)[C@H]3O[C@H]3O[C@H](CO)[C@@H](O)[C@H](O)[C@H]3N)O[C@@H]2CO)[C@H](N)[C@@H](O)[C@@H]1O	de novo protein S23	SPR	–	–	Kd	10 ± 1 µM
CSc1nc(C)c(CCC(=O)O)c(=O)[nH]1	USP3 ZnF-UBD domain	–	–	–	Kd	51.8 µM
Nc1nc2c(ncn2[C@@H]2O[C@H](COP(=O)(O)OP(=O)(O)O)[C@@H](OP(=O)(O)OP(=O)(O)O)[C@H]2O)c(=O)[nH]1	speC (Escherichia coli, UniProt P21169)	isothermal titration calorimetry	–	–	Kd	2.3 µM
O=C(NCC1CCOCC1)c1ccc([C@H]2[C@@H](F)[C@@H](F)C[C@@H](F)[C@H]2F)cc1	–	hepatocyte stability	cryopreserved mouse hepatocytes	1 µM	hepatic clearance	31 mL/min/kg
Cc1cc2nc3c(=O)[nH]c(=O)nc-3n(C[C@H](O)[C@H](O)[C@H](O)COP(=O)(O)OP(=O)(O)OC[C@H]3O[C@@H](n4cnc5c(N)ncnc54)[C@H](O)[C@@H]3O)c2cc1C	RNA-binding motif, single-stranded-interacting protein 1 (RBMS1, Homo sapiens, UniProt P29558)	binding, MS pulldown competition	SW-620 cell lysate	–	Kd	0.008 µM
CC(C)=CCC/C(C)=C/C=C/C(C)=C/C=C/C(C)=C/C=C/C=C(C)/C=C/C=C(C)/C=C/C=C(\C)CCC=C(C)C	Beta-lactoglobulin (LGB, Bos taurus, UniProt P02754)	binding, fluorescence quenching	PBS	30 min, 303 K	Kd	2.33 µM
NC(=O)c1cc(-n2c(CCC(=O)O)nc3ccccc32)cs1	USP3 ZnF-UBD domain	–	–	–	Kd	> 1000 µM
Cc1nn(-c2nc3ccccc3[nH]2)c(O)c1C(c1ccccn1)c1c(C)nn(-c2nc3ccccc3[nH]2)c1O	Cyclic GMP-AMP synthase, catalytic domain; with DNA (CGAS, Homo sapiens, UniProt Q8N884)	liquid-liquid phase separation, inhibitor	–	–	EC50	8.67 µM
CCCCCCCCCCCC1=C(O)C(=O)C=C(O)C1=O	de novo protein S23	NMR	–	–	Kd	~1000 µM
O=C(O)CCc1nc2ncccn2n1	USP3 ZnF-UBD domain	–	–	–	Kd	> 1000 µM
Cc1ncsc1-c1ccc(CNC(=O)[C@@H]2C[C@H](O)CN2C(=O)[C@@H](NC(=O)C2(F)CC2)C(C)(C)C)c(OCCOc2ccc(CN3CCN(c4cc(-c5ccccc5O)nnc4N)CC3)cc2)c1	SWI/SNF-related matrix-associated actin-dependent regulator of chromatin subfamily A member 4, bromodomain (SMARCA4, Homo sapiens, UniProt P51532)	binding, SPR	–	6 °C	Kd	1.6 µM
O=C(O)Cn1ccc2ccccc2c1=O	USP3 ZnF-UBD domain	–	–	–	Kd	249 µM
CC[C@@H]1[C@H](F)C(=O)N[C@@H]1COc1nccc2cc(C(N)=O)c(OC)cc12	MAP2K6 (Homo sapiens, UniProt P52564)	ATP-site probe binding, ActivX profiling	THP-1 cell lysate	Lys2 site	IC50	4 µM

Compound	tested on	test	test system	setting	endpoint	result
COc1cc(Cl)c(C(=O)N[C@@H](CN[C@H]2CC[C@@H](N)CC2)Cc2ccc(C#N)cc2)cc1-c1ccc(CN[C@H](C)c2ccc(C)cc2)o1	ATPase family AAA domain-containing protein 2, bromodomain (ATAD2, Homo sapiens, UniProt Q6PL18)	isothermal titration calorimetry	–	37 °C, His-tagged protein	Kd	0.753 µM
CC(C)C[C@H](NC(=O)C[C@H](O)[C@H](CC(C)C)NC(=O)[C@H](Cc1c[nH]cn1)NC(=O)CNC(=O)[C@@H](NC(=O)[C@H](C)NC(=O)[C@H](Cc1c[nH]c2ccccc12)NC(=O)[C@H](CCC(N)=O)NC(=O)[C@@H](Cc1ccccc1)NC(=O)COCCOCCNC(=O)CCC(C(=O)O)N1CCN(CC(=O)O)CCN(CC(=O)O)CCN(CC(=O)O)CC1)C(C)C)C(N)=O (stereo partly shown) [lutetium-177 labelled]	–	–	female BALB/c nu/nu mice, stomach	intravenous, 100 pmol, 2 h, together with: PA 300 µg	tissue uptake	0.9 ± 0.3 %ID/g
O=c1c(O)c(-c2cc(O)c(O)c(O)c2)oc2cc(O)cc(O)c12	Histidinol-phosphate aminotransferase (hisC, Acinetobacter baumannii, UniProt A3M2I8)	surface plasmon resonance	–	–	Kd	2.6 µM
O=[N+]([O-])c1ccc2nn[nH]c2c1	HG3.17 designed enzyme (HG3-Evolved)	stopped-flow tryptophan fluorescence	–	pH 7, 20 °C	Kd	25 ± 5 µM
CC(C)C[C@H](NC(=O)[C@H](CC(C)C)NC(=O)[C@H](CC(C)C)NC(=O)[C@H](CO)NC(=O)[C@H](CCCCN)NC(=O)[C@H](CCC(N)=O)NC(=O)[C@H](CCCCN)NC(=O)[C@H](Cc1ccccc1)NC(=O)[C@H](Cc1ccccc1)NC(=O)[C@@H]1CCCN1C(=O)[C@H](CCC(=O)O)NC(=O)[C@@H](NC(=O)CNC(=O)[C@@H](NC(=O)[C@H](CO)NC(=O)[C@@H](N)CCC(N)=O)[C@@H](C)O)[C@@H](C)O)C(=O)O	DNA repair protein REV1, C-terminal domain (Homo sapiens, UniProt Q9UBZ9)	binding, tryptophan fluorescence quenching	–	–	Kd	4.4 µM
CN(C)C(=N)N=C(N)N	Calcium-dependent protein kinase 28 (CPK28, Arabidopsis thaliana, UniProt Q9FKW4)	biochemical	–	–	Kd	98.8 µM
Nc1nc2c(ncn2[C@@H]2O[C@H](COP(=O)(O)OP(=O)(O)O)[C@@H](OP(=O)(O)OP(=O)(O)O)[C@H]2O)c(=O)[nH]1	Hypoxanthine phosphoribosyltransferase (hpt, Escherichia coli, UniProt P0A9M2)	binding, ITC single-site fit	–	–	Kd	32 ± 4 µM
O=C(Cc1cccnc1)Nc1ccc(C2CCCCC2)cc1	–	–	cryopreserved mouse hepatocytes	1 µM	hepatic clearance	65 mL/min/kg
COc1ccc(C=C2SC(=O)N(C(C)C(=O)O)C2=O)cc1 (stereo not shown)	USP3 ZnF-UBD domain	–	–	–	Kd	441 µM
CCCN1CCN(c2ccc(-c3cncc(Cl)c3N3CCC4(CCNC4=O)CC3)cc2)CC1	MED14 human	SILAC competition	LS174T-L5 lysate	–	Kd	0.007 µM
C=C1[C@@H](O)C[C@H]2C(C)(C)CCC[C@]2(C)[C@H]1C[C@H](O)[C@H]1CC(=O)NC1=O	ribosome, Saccharomyces cerevisiae, 80S, E site	smFRET	–	pH 7.5, 23 °C, 5 mM MgCl2	Kd	85 ± 35 µM
O=C(O)CCC(=O)c1ccc2c(c1)CCC(=O)N2	USP3 ZnF-UBD domain	–	–	–	Kd	140 µM
OC1OC[C@H](O)[C@H](O)[C@H]1O (mixture of isomers)	uncharacterized protein (Pelagibacter ubique, UniProt Q4FMK2)	isothermal titration calorimetry	Candidatus Pelagibacter ubique	–	Kd	1.24 µM and 1.37 µM
NS(=O)(=O)c1ccc(NCC(=O)O)cc1	USP3 ZnF-UBD domain	–	–	–	Kd	620 µM
Cc1cc(C)n2c1C=C1C=CC(CCCCCCCCCCCCCCCC(=O)O)=[N+]1[B-]2(F)F	Ppara (Mus musculus, UniProt P23204, F272I)	binding, BODIPY fluorescent ligand titration	–	–	Kd	0.018 ± 0.003 µM

Excerpt of the above:
Compound	tested on	test	test system	setting	endpoint	result
CC(C)=CCC/C(C)=C/C=C/C(C)=C/C=C/C(C)=C/C=C/C=C(C)/C=C/C=C(C)/C=C/C=C(\C)CCC=C(C)C	Beta-lactoglobulin (LGB, Bos taurus, UniProt P02754)	binding, fluorescence quenching	PBS	30 min, 303 K	Kd	2.33 µM
NC(=O)c1cc(-n2c(CCC(=O)O)nc3ccccc32)cs1	USP3 ZnF-UBD domain	–	–	–	Kd	> 1000 µM
